# Measurements gathered from unrelated publications.
# A part holds a random share of what one study measured. Changes are numbered by the printed parent chain.

# Study 1
# Target: CCNA1, cyclin fold, Cln2 fusion (human)
# Technique: yeast growth competition, sequencing
# Sample: yeast
# Setting: strong parent motif
# Reference: not given
# Direction: higher = stronger binding
# Starting sequence: RBL2 docking peptide (human); STTRRRLFVENDS
Change,normalised enrichment score
STTRRRLFEENDS [V9E],0.529
STTRCRLFVENDS [R5C],0.352
STTRRRLFVENRS [D12R],0.3
STTRRRLFVENDE [S13E],0.779
STTRRRLQVENDS [F8Q],0.472
STTRRRLFVENSS [D12S],0.41
STTRERLFVENDS [R5E],0.208
STTRRRLFVENDP [S13P],1.04
STTVRRLFVENDS [R4V],0.337
STTRRRHFVENDS [L7H],0.152
HTTRRRLFVENDS [S1H],0.739
STTRDRLFVENDS [R5D],0.214
STTRRRLFVENYS [D12Y],0.721
STTRRRLFVHNDS [E10H],0.406
STTRRRLFVEDDS [N11D],0.797
STTRYRLFVENDS [R5Y],0.286

# Study 2
# Target: Myc proto-oncogene protein, bHLH-zipper, MAX partner unstated (MYC, Homo sapiens, UniProt P01106, residues 368-449)
# UniProt P01106, sequence (368-449, looked up): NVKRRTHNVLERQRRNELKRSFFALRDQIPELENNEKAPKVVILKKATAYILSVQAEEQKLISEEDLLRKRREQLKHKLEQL
# Technique: protein-binding microarray
# Form: double-stranded DNA, one strand shown
# Sample: in vitro
# Tested at: not given
# Setting: k-mer, scored over probes, only values ≥0.25
# Direction: higher = stronger binding
Strand,E-score
AAACGTGG,0.438
ACCACCCC,0.342
ACATGTAC,0.324
CCCGCGCG,0.289
AGAACATG,0.293
ATGTGCTG,0.329
GTGTGAAC,0.259
ATGAGGTG,0.307
CGTGCACG,0.434
AACGCGGT,0.276
CCACGCAA,0.314
ACATGGGC,0.298
CGTGTGCA,0.409
AAGCACGT,0.431

# Study 3
# Target: ABI1, truncated, D143A, DHFR fusion (Arabidopsis thaliana)
# Technique: DHFR PCA, deep sequencing
# Sample: yeast
# Setting: methotrexate growth selection, single substitutions
# Added: (+)-ABA 2500 µM
# Reference: wild-type fitted maximum
# Direction: higher = stronger binding
# Starting sequence: PYL1, truncated, DHFR fusion (Arabidopsis thaliana); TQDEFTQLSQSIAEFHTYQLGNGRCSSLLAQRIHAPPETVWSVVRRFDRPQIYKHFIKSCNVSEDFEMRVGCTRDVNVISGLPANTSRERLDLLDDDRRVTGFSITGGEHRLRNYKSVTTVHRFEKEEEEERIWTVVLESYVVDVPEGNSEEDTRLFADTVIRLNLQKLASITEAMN; partner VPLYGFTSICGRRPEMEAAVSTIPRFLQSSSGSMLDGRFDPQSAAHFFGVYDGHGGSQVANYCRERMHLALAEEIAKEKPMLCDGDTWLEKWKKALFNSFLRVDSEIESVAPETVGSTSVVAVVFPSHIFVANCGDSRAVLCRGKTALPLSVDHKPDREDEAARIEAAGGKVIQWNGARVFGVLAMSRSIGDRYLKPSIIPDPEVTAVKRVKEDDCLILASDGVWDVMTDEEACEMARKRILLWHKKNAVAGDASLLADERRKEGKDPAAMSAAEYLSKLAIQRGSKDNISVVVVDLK
Change,relative binding score [%]
R155T,96.9
V161Y,80.8
E109S,103
R155Q,94.5
H55S,96.1
L28Q,99.7
T106G,83.6
Y53W,96.9
I52F,89.6
L166F,81.1
Q2Y,93.7

# Study 4
# Target: Sal-like protein 4, full length isoform A (SALL4, Homo sapiens, UniProt Q9UJQ4, residues 1-1053)
# UniProt Q9UJQ4, sequence (whole entry, looked up): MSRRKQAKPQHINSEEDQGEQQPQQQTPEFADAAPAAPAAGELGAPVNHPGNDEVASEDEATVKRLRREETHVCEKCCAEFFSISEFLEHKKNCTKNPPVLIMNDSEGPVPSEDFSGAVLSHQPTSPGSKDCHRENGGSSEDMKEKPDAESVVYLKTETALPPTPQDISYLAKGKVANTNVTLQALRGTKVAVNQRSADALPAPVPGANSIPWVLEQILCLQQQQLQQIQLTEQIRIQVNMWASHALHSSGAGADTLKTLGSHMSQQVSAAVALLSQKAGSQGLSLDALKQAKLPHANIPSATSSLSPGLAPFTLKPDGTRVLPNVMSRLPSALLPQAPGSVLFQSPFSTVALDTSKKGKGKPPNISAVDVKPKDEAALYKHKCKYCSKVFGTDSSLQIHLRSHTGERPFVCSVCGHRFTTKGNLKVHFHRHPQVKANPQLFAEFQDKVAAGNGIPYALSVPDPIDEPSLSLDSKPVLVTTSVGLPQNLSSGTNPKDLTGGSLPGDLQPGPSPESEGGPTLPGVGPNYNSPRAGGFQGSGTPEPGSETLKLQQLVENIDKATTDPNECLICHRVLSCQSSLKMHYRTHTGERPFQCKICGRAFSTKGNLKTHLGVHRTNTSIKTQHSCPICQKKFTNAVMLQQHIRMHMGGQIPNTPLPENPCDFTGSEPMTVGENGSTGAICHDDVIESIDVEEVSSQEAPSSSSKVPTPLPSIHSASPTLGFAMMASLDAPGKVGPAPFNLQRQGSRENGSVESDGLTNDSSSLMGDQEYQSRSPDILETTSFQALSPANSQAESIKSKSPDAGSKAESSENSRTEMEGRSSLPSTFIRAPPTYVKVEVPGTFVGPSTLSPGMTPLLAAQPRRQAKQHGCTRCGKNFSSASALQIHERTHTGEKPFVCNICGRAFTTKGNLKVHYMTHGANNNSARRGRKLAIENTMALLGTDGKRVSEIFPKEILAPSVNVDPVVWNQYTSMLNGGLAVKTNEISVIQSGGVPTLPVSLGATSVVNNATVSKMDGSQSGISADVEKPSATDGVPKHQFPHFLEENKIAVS
# Technique: universal PBM
# Form: double-stranded DNA, one strand shown
# Sample: in vitro
# Tested at: 600 nM
# Setting: 8-mer, flanks averaged, mean of replicates
# Direction: higher = stronger binding
Strand,E-score
CCTGATAC,0.136
AAGGTGCG,-0.182
GAATAGAA,0.181
AAGTCCTG,-0.184
TTATCCAA,0.282
CTGTAGCA,0.0521
CAACTTAG,0.0253
TAGACGAA,0.222
CCTCGGAG,-0.315
TATTTAAA,0.401
GTGCTGAA,-0.125
GTTAAAAA,0.241
CGGATTAA,0.0732
AGATACTC,0.0512
AGGACCCT,-0.233
GCGATTCC,-0.175
GCATTACC,-0.0314

# Study 5
# Target: RNA binding protein fox-1 homolog 2, RRM domain, GST-SBP tag (RBFOX2, Homo sapiens, UniProt O43251-10, residues 100-194)
# Technique: RNA Bind-n-Seq
# Form: RNA
# Sample: in vitro
# Tested at: 365 nM
# Setting: natural RNA segment, single round, ends assumed
# Reference: no-protein control
# Direction: higher = stronger binding
# All sequences stand within: GGGAGUUCUACAGUCCGACGAUC … UGGAAUUCUCGGGUGCCAA
# Target sequence (chain): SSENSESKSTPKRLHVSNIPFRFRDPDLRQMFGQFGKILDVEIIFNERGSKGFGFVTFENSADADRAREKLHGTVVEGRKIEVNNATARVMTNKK
Strand,RBNS enrichment (R)
CCUGUGGGCCUGCUCAGCAUGACUUCCAGGACCCCACUGUUCUGGACUGACAUCCCAGGUGUCACAGGCUCAGGGAGUGGCACCAGGUCACCUCUCCAGGGACUGAGCAU,6.32
AAGAACACCUAAAUUUUUAUGUUUCUUGGCUCAAAAACCAGUUCCAUUUCUAAUGUUGUCCUCACAAGAAGGCUAAUUGGUGGUGAGACAGCAGGGGAGGAGGAAGAGCU,0.581
UGCCUAGUAUAGUGCUGAGCACAUAGUAGGCGUUUAAUAAAUGCUUGUUGAAGUAUUGUGUGGAUUAUUUGUGGUGGUAUCUACAGAAAUUUUUAAGCUGUUUUCAAGAA,0.559
AGGAAUCAGUCCUGUAGCUUGGGUGCCUCCUUAUUUGUUAAUUAGUGGCUUUUCAUGUUCUCCUUUAGCCAAGGCUCCCUUUUUCCAAGUGAUGUCUUUCAGGGAAGCAG,0.451
CUAGUUAAUGGUAGAAUACUCCCAAAACUUGGAGAAAGAACUGCUCUCUGAAGCUAUCAGAAAUACCUAUGCCAGUAUAGAAGGGGAACUUGGUGAAGGAUGGUGCUCAU,1.2
CUAAAUUACCAGCAAAACAAACCACUCUCCUGUUUGAGUAAAAUGAGAAAGUUAAUAUGUGGCCUCCUUUUCUGAAGCCAGAUCAAACUGUUACCUUGUGUUCCACCUUG,0.324
CAGCUCAGGACGUGGGGCCGAUCUGUGUGAGUCCAGCAUGUACCUGUGUCCCCCGUAGUAUCCCCGCAGCCCAGGCCGACGAGGCCCACCCCUGGACUUGAUCAGUAUUC,4.89
UCUGGCAUUUAAUACCUACAUGAUUUGUGAGCUACUUCUGCCUUCUCCUUCUCUGCUCUUAAACCUGGAGACGCUUGCUCUGCCUUCUCCCCUAUCACUUCAAGUGUUUA,1.29
CGUCUUUCCUUUGUAUUGGAGAAGGACUGGGUCAGAGAUCUGUUGGAGAGAGAGAAUAAAGAGAUUAUUUUUCAUUAUUUUUAAAUGGUUGUUUUUGUUUUAAUUUGCAC,1.52
UACCACCAGUCACCUGCAUCAUUCAUGCUAGAAGCUGUGUUCUAGCCAUGCAGUUACAUCUCUUUCUAAAUGAGGUCAGGUUUGCAAAUAAUAACAACAAAAAAGCUUUG,0.467
UAGUUGUGUCUUAAUGGAAUUAAUAAAUGUCAUUUCACUACUGGUGUUCUGUUUCAAUGUAUAAGGACUAUAGUGAUUUAAACUCAUCAAUGUGCCUUUGCAUAAAGUUC,0.287
AUUCUGUUAGAUUUUUUUAUUGGACUUACAUAAUGCCGUUUAUUUGAGAAACACAUAACAUCUCUCCUUUCUAUGAAAAAUUUUUUAAAAGGUGGUUAAAAUUGCCUUUA,0.835

# Study 6
# Target: Histone acetyltransferase KAT6A, winged helix 1, GST fusion (KAT6A, Homo sapiens, UniProt Q92794, residues 1-85)
# Technique: protein binding microarray
# Form: double-stranded DNA, one strand shown
# Sample: in vitro
# Tested at: not given
# Setting: 8-mer, flanks averaged, mean of 2 arrays, mostly near background
# Reference: not given
# Direction: higher = stronger binding
# Residues (chain): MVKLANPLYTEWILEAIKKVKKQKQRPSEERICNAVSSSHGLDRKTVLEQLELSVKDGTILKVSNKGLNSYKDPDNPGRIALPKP
Strand,E-score
TTACGTAA,-0.136
AGGCATTC,-0.0786
GCATCCGC,0.176
GACTGAAC,-0.0284
GTCTGGAA,-0.123
AAGGAAGA,-0.234
CGACAATA,0.0612
TAGTACGA,-0.043
AAGAACGA,-0.12
GGTCAGGA,-0.0708
AGTGGTAG,-0.14
ACTGGCTG,0.0378
ATTGCGTG,0.0769
AAAGTTCG,-0.195
CTCCGTTA,0.0749
AAGGCAGA,-0.24
ATGCGGTG,0.149
CACCAGGA,-0.154
ACGTTGGG,-0.317
GCTCTGCA,-0.0918
ACCGGAGA,0.0649

# Study 7
# Target: Prothrombin, mature alpha-thrombin (F2, Homo sapiens, UniProt P00734)
# Technique: aptamer microarray, sandwich
# Form: DNA with 2'F-ANA
# Sample: in vitro
# Tested at: 200 nM
# Setting: whole 15-mer aptamer, many near background
# Added: Cy3 exosite-II aptamer, 400 nM
# Direction: higher = stronger binding
# Strand: GGTTGGTGTGGTTGG
Modification,mean fluorescence intensity [a.u.]
2'F-ANA at 2 4 5 6 7 9 10 11 12 13 15,50.7
2'F-ANA at 1 2 3 4 5 7 11 12 13 15,72.8
2'F-ANA at 2 5 9 11 12 15,102
2'F-ANA at 1 3 4 5 8 9 13 14,55.5
2'F-ANA at 1 2 3 5 6 9 10 12 13,79.1
2'F-ANA at 2 3 5 8 10 12 13 14,64.8
2'F-ANA at 3 7 8 11 12 13,1200
2'F-ANA at 1 3 4 5 6 8 13 15,55.1
2'F-ANA at 2 3 4 5 8 9 10 13 15,50.6
2'F-ANA at 1 2 4 14,52
2'F-ANA at 2 7 10 11 13,132
2'F-ANA at 1 2 4 5 6 8 9 10 13 14 15,52.5
2'F-ANA at 1 3 4 6 7 8 9 11 13 14 15,80.8
2'F-ANA at 1 5 6 7 8 9 10 12 13,50.4
2'F-ANA at 2 5 6 7 9 10 12 15,55
2'F-ANA at 2 4 5 8 10 11 12 14,104

# Excerpt of the above (study 4):
Strand,E-score
TTATCCAA,0.282
CTGTAGCA,0.0521
CAACTTAG,0.0253
TAGACGAA,0.222
CCTCGGAG,-0.315
TATTTAAA,0.401
GTGCTGAA,-0.125
GTTAAAAA,0.241
CGGATTAA,0.0732
